Measured values gathered from unrelated publications.
Each numbered part is a random draw from the data of one study; scales do not carry over between parts. Positions count from the first letter of the parent shown.

Sample 1
Target: RNA binding protein fox-1 homolog 2, RRM domain, GST-SBP tag (RBFOX2, Homo sapiens, UniProt O43251-10, residues 100-194)
Method: RNA Bind-n-Seq
Molecule type: RNA
Matrix: in vitro
Concentration: 365 nM
Notes: natural RNA segment, single round, ends assumed
Relative to: no-protein control
Reading: higher = stronger binding
Shared flanks, not repeated: GGGAGUUCUACAGUCCGACGAUC … UGGAAUUCUCGGGUGCCAA
Residues (chain): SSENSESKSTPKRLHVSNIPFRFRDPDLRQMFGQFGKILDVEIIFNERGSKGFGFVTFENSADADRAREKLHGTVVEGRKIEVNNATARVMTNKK
Sequence	RBNS enrichment (R)
CACUCACACUCGUCCCCAGCUUAGCACAGAGCUGGAGCGCCCAUUUCUGGAAUUUUCCGUUUGGGAAUCUCCACUUCUGGGGUUUACCUGUUCGGCCUCCUGUCUAUCAG	0.382
UCACCGUCUCCGCACUGUGCCUGCGGGUCACCAGAGACAAGGCCUUCCUCAGGGACGUACAGGCUGUCUGCUGAGCAGCCCCCACUCUUCUUUAUGGCAACAGGAGGAGA	0.344
GGGAAGUGUGCAGUGUGAGCUCUGCCCUCCUGUUAAGUUCUCCAGCUCUAGACAUGUCUCUUGGUGUGUGUUUUAUCUACUGGUGUUAUUCUAUAUGGUAGAAUUACCAA	0.381
UAUAAUUUUUAAAAAAUCUUUUAUUUUAAUACAUUGUAGGAAAUCUUCAUAAUUUGAGACAGUUCUGCAGCAUGGCUUUUUACAUCUGUAAAUAAAUAAUUUUAGAAGUC	2.08
GUGUAUGGAAGGCGGGGCUCAUGGCUGAUUGGCAAUAAAAUGGCGGCUGCCGUUGUCAUUGUCUCCAUCUCAGGAUCUCACCUCAGAGACCCUUCCUCCCCUACCCCAAG	0.258
GUGCCUUUUACAUGUUCUAUUUUGUAUCCUAAUGACAGAAUGAAUAAACCUCUUUAUAUUUGCACAAGAGGACUCUUGUCUGUCAGCACUUCUGAGGGUGGAGUUUGUGA	1.16
CAUUCCAGAGAAAUGGCCAGACUUGCCCCUACCCUUUUGCCCCUGGUGUAGCUGCCUCACAUGAGGUUAUUGCAAGAGUUCCCCUUGCAAUACCCUUUGUGCCCUCAAGA	0.543
AUUCAAAAAGAUAGUUAAAUCAUGCUACUGAGCCUAUGAUGUCGUUGAUGUUUGGUUCGGUAUUCUUGCAUAAAACUUAAAAAUUAAACGAACGCUGCAGAGUUUACUGA	0.25

Sample 2
Target: ABI1, truncated, D143A, DHFR fusion (Arabidopsis thaliana)
Method: DHFR PCA, deep sequencing
Matrix: yeast
Notes: methotrexate growth selection, single substitutions
Added: (+)-ABA 4.8 µM
Relative to: wild-type fitted maximum
Reading: higher = stronger binding
Starting sequence: PYL1, truncated, DHFR fusion (Arabidopsis thaliana); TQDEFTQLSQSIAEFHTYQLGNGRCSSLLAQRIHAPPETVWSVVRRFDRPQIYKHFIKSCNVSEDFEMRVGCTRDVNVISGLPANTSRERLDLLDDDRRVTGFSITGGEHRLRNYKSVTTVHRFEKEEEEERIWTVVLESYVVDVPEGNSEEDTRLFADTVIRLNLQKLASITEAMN
Substitution	relative binding score
C72N	54.8%
I105A	-4.46%
T120V	-3.52%
N149R	1.72%
I52R	60.1%
E14F	3.82%
D75W	76.6%
A30V	72%
T39S	54.1%
E127F	68.2%
R69F	40.4%
A175N	81.8%
L93P	13.5%
I133V	88.2%

Sample 3
Target: Hepatocyte nuclear factor 3-beta, forkhead domain (FOXA2, Homo sapiens, UniProt Q9Y261, residues 142-269)
Method: protein-binding microarray
Molecule type: double-stranded DNA, one strand shown
Matrix: in vitro
Concentration: not given
Notes: k-mer, scored over probes, only values ≥0.25
Reading: higher = stronger binding
Target sequence (chain): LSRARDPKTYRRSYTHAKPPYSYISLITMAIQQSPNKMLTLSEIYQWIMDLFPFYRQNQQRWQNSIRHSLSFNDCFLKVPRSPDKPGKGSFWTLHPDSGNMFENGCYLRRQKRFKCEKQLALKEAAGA
Sequence	E-score
AATAAACG	0.277
AAAGTATA	0.326
TACGTTGA	0.297
AAACAAAC	0.314
TATTTCAA	0.353
ATGTGTAC	0.369
ATAACGGA	0.275
TGTTGTAA	0.263
AATCAATG	0.292
AATGGAAT	0.267
ATAGATCA	0.258
ACGATAAC	0.299
TCCATCAA	0.29
CATGTGTA	0.356
ACGTTTAC	0.28

Sample 4
Target: Cln2 (Saccharomyces cerevisiae)
Read-out: peptide binding
Method: competitive growth sequencing
Molecule type: peptide
Organism: Saccharomyces cerevisiae
Strain: unfused Cln2 strain
Notes: peptide tiling library
Reading: direction not given
Sequence	enrichment score
ARKRLELGNLGNPQ	-0.401
DWDTVERQEEEAPSWD	0.914
RKLHFEDEVT	0.34
KVKRRLDLDIDGLQKE	-1.05
NNIRKALSFDNRGEEH	-0.637
SCCKRKLVVGNGPEGP	-0.503
NFETPEAETPIRSPFK	0.677
TTTTSPRTPPPLTVQD	1.33
GAEELEDLVHFSVSEL	1.25
RRVLCFDS	-0.877
VSRNLRSSLKSSLHTL	-1.92
GFGFLLFICKLTF	-0.0624
LRRQLSFSED	0.52
PPTFLSTGEIHAFLSS	-0.628
PPKPLKKLRFDIEGSD	0.213
LRRKLFLDGNGSIS	-1.29

A few entries again (sample 3):
Sequence	E-score
AATCAATG	0.292
AAAGTATA	0.326
AAACAAAC	0.314
ACGTTTAC	0.28
AATGGAAT	0.267
